Assay results collected from several papers.
Protocols differ between the studies behind these lines. “And” joins repeats or separate records; there may be more than shown. ± gives the spread as reported.

CCCCN1C(=O)c2cccc3c(NCCCCN4CCOCC4)ccc(c23)C1=O: “fluorescence quantum yield” 0.34 (toluene).
For C=CC(=O)Nc1cc(Nc2nccc(-c3cn(C)c4ccccc34)n2)c(OC)cc1N(C)CCNC, the recovery was 40% (storage stability; human dried blood spot; 30 d, on ice, LQC level).
C=Cc1c(C)c2cc3nc(c(CC(=O)O)c4[nH]c(cc5nc(cc1[nH]2)C(C)=C5CC)c(C)c4C(=O)O)[C@@H](CCC(=O)OCCOCCOCCOC)[C@@H]3C gave a compound loss of 28% (LC-MS; methanol-water 9:1; 4 h, pH 2.0).
For O=C(O)CCCOc1ccc([18F])cc1-c1cc(-c2ccccc2C(F)(F)F)n(-c2ccccc2)n1, the absorbed dose was 7.71 µGy/MBq (OLINDA/EXM from mouse data; human adults, testes).
C#CC(C)NC(=O)C(CC(C)(C)F)NC(c1ccc(-c2ccc(S(C)(=O)=O)cc2)cc1)C(F)(F)F (stereo not shown) — result for “cysteine adduct formation”: less than 1% (MES buffer; 100 µM, 23 h, pH 5.5, 37 °C, together with: cysteine 10 mM).
Nc1ncc(-c2cc(-c3cnn(CC(F)(F)F)c3)ncc2F)nc1C(=O)NC1CNCC(F)C1 (stereo not shown) has a remaining binding of 100% (FAK; KINOMEscan competition binding; 1 µM; reference: DMSO control).
O[C@@H]1[C@@H](O)[C@H](n2cc(-c3ccc(-c4nncnn4)cc3)nn2)O[C@H](C[18F])[C@H]1O — result for “tumour to muscle ratio”: 4.6 (BALB/c nude mouse, LS174T xenograft; intravenous, 1 h, together with: CC49-TCO 72 h before).
The tumour-to-tissue ratio of CCCC[C@H](NC(=O)CNC(=O)CNC(=O)[C@H](CCCCNC(=O)C(C)c1ccc(CC(C)C)cc1)NC(=O)CN1CCN(CC(=O)O)CCN(CC(=O)O)CCN(CC(=O)O)CC1)C(=O)N[C@H]1CC(=O)NCCCC[C@@H](C(N)=O)NC(=O)[C@H](Cc2c[nH]c3ccccc23)NC(=O)[C@H](CCCNC(=N)N)NC(=O)[C@@H](Cc2ccccc2)NC(=O)[C@H](Cc2c[nH]cn2)NC1=O (stereo partly shown) [lutetium-177 labelled] is reported as 1.08 (C57 mice, tumour; 2 h; reference: kidney).
Under “log2 fold change”, COC1CN([C@H]2CC[C@H]([C@@]3(C)Oc4c(Cl)cc(C(=O)NCc5c(SC)cc(C)[nH]c5=O)c(C)c4O3)CC2)C1 is recorded as 0.259 (RNA-seq, measured: GNG12 mouse homolog; mouse, HT-1376 xenograft, whole blood; dose not given; reference: vehicle).
Under “percent of control”, C=CC(=O)Nc1cccc(Cn2ncc3cnc(Nc4cnn(CCOC)c4)nc32)c1 is recorded as 74% (IRAK1 human; binding, KINOMEscan; 100 nM; lower = stronger binding).
For COCC1CN(C2CCN(c3cc(OC)c(Nc4ncc(Br)c(Nc5ccc6c(c5P(C)(C)=O)OCCO6)n4)cc3C)CC2)C1, the AUC was 590 ng·h/mL (human, plasma; oral, 10 mg, multiple doses, patients).
Under “subjects with adverse event”, CN1CCC[C@]1(C)/C=C/S(=O)(=O)NC(=O)Nc1c2c(cc3c1CCC3)CCC2 is recorded as 16.7% (measured: Headache, possibly related; human; oral, 50 mg twice daily, 14 days, multiple ascending dose).
CCN(CC)CC#CCNc1ccnc2cc(Cl)ccc12 has a revertants of 25 revertants/well (Salmonella typhimurium; mini-Ames test; TA100; 125.0 µg/well, without S9).
CC(C)OCCOCc1ccc(OCC(O)CN(N=O)C(C)C)cc1 (stereo not shown) — result for “revertant fold increase”: 1.1 fold (Salmonella typhimurium; Ames test; TA98; 50 µg/plate, 30 % hamster S9; reference: solvent control).
For N#C[C@@H]1CC(F)(F)CN1C(=O)CNC(=O)c1ccnc2c(NC(=O)[C@H](CCCCNC(=O)CCOCCOCCOCCOCCOCCOCCNC(=O)CN3CCN(CC(=O)[O-])CCN(CC(=O)[O-])CCN(CC(=O)[O-])CC3)NC(=O)CCCc3ccc(I)cc3)cccc12.[177Lu+3], the tracer uptake was 1.14 %ID/g (U-87 MG tumour model; host not given, stomach; 4 h, tumour-bearing).
Cc1ncsc1-c1ccc(C(C)NC(=O)C2CC(O)CN2C(=O)C(NC(=O)CCCCCCCCCCN2CCCC(Nc3ncc(Cl)c(Nc4ccccc4S(=O)(=O)C(C)C)n3)C2)C(C)(C)C)cc1 (stereo not shown) — result for “log2 fold change”: -3.24 (22Rv1; RNA-seq, measured: LNCRNA-ATB; concentration not given; reference: DMSO).
For C[C@H](C(=O)O)c1ccc(-c2ccccc2)c(F)c1, “relative change of HPLC peak area” read 1.1% (HPLC; solution; concentration not given, 12 h, room temperature).
For COc1ccnc(C(=O)N[C@H]2COC(=O)[C@H](Cc3ccccc3)[C@@H](OC(=O)C(C)C)[C@H](C)OC2=O)c1O, “organic carbon-normalised Kf (KFoc)” read 2150 mL/g (silt loam soil; organic carbon 1.0 %, pH 5.5).
CC[C@H](C)[C@H](NC(=O)[C@H](CCCNC(=N)N)NC(=O)[C@H](Cc1c[nH]cn1)NC(=O)[C@@H](N)[C@@H](C)O)C(=O)N[C@@H](CC(C)C)C(=O)N[C@@H](CCCNC(=N)N)C(=O)N[C@@H](CCCNC(=N)N)C(=O)N[C@@H](CC(C)C)C(=O)N[C@@H](Cc1ccccc1)C(=O)N[C@@H](CC(N)=O)C(=O)N[C@@H](CC(C)C)C(=O)N[C@@H](CS)C(N)=O: ambulatory activity “no effect” (metabolic cages; C57BL/6J mice; ip, 5 mg/kg).
COc1cnc2cccc(N3CCc4c(cc(Cn5ccnc5)cc4-c4cn(C)nc4C(F)(F)F)C3=O)c2c1 gave a Cmax of 2960 ng/mL (male CD-1 mouse, plasma; oral, 10 mg/kg).
For O=C(Nc1cnccc1-c1ccc([18F])nc1)c1ccnc(NC(=O)C2CC2)c1, the SUV was 6.6 (FVB/NJ mice (both sexes), feces; intravenous, dose not given, 120 min, together with: tariquidar 15 mg/kg i.v. pre-dose).
With COC(=O)C(C)n1nc(Cn2cc3cc(OCC[18F])c(Cl)cc3n2)c2ccccc2c1=O (racemic) the radiometabolite was ~30% and 30% (rat, brain; 45 min).
For C=C(NC(=O)c1csc(-c2nc3c(cc2O)-c2nc(cs2)C(=O)NC(C(C)O)C(=O)NC(=C(C)OC)c2nc(cs2)C(=O)NC2c4nc(cs4)C(=O)NC(COC(=O)c4c5c6c(cccc6n4O)COC(=O)C(OC4CC(C)(O)C(N(C)C)C(C)O4)C2OC5)c2nc-3cs2)n1)C(N)=O (stereo not shown), the clearance was 3.51 mL/min/kg (cynomolgus monkey, both sexes, plasma; intravenous infusion, 9 mg/kg single dose).
Under “subjects with TEAEs”, CC(C)(O)c1ncc([S@](N)(=O)=NC(=O)Nc2c3c(cc4c2CCC4)CCC3)s1 is recorded as 67% (measured: nervous system disorders; healthy human; oral, 30 mg, 14 days, CS formulation, once daily).
For O=C1C2CC3CC1CC(C(=O)N1CCN(c4ccc([N+](=O)[O-])c5ncccc45)CC1)(C3)C2, “mean revertant colonies” read 8 colonies/well (Salmonella typhimurium; Ames test; TA98; 0.05 µg/well, with S9).
For COc1cccc(OC)c1-c1cc(C(=O)NC2(C(=O)O)C3CC4CC(C3)CC2C4)nn1-c1ccc(C(=O)N(C)CCOCCOCCN(C)C(=O)[C@H](CCCCNC(=O)[C@H](CC(C)C)NC(=O)C2OC2C(=O)O)NC(=O)CN2CCN(CC(=O)[O-])CCN(CC(=O)[O-])CCN(CC(=O)[O-])CC2)cc1C(C)C.[177Lu+3] (mixture of isomers), the tumour-to-heart ratio was 6.58 (mouse, HT-29 xenograft; 168 h post injection, biodistribution; reference: tumour over heart uptake).
With Cc1ncsc1-c1ccc(CNC(=O)[C@@H]2C[C@@H](O)CN2C(=O)[C@@H](NC(=O)COCC(C)(COCCOCCOCCNC(=O)C[C@@H]2N=C(c3ccc(Cl)cc3)c3c(sc(C)c3C)-n3c(C)nnc32)COCCOCCOCCNC(=O)C[C@@H]2N=C(c3ccc(Cl)cc3)c3c(sc(C)c3C)-n3c(C)nnc32)C(C)(C)C)cc1 the plasma concentration was 1310 ng/mL (male C57BL/6 mice, plasma; subcutaneous, 5 mg/kg, 30 min, sample diluted 20-fold).
CC(CCC(=O)NCC(=O)O)C1CCC2C3CCC4CC(OC5OC(C(=O)O)C(O)C(O)C5O)CCC4(C)C3CC(O)C12C (stereo not shown) gave a Cmin of 39 ± 11.4 nM (human, plasma; baseline).
The tissue uptake of CCCC[C@H](NC(=O)CCCCCCCNC(=O)CN1CCN(CC(=O)O)CCN(CC(=O)O)CC1)C(=O)N[C@H]1CC(=O)NCCCC[C@@H](C(N)=O)NC(=O)[C@H](Cc2c[nH]c3ccccc23)NC(=O)[C@H](CCCNC(=N)N)NC(=O)[C@@H](Cc2ccccc2)NC(=O)[C@H](Cc2c[nH]cn2)NC1=O [technetium-99m labelled] is reported as 0.6 ± 0.3 %ID/g (C57 mouse, stomach; intravenous, 0.037 MBq, 24 h).
N=C(N)NCCC[C@@H]1NC(=O)[C@H](CO)NC(=O)[C@@H](NC(=O)[C@H](CO)NC(=O)[C@H](CO)NC(=O)[C@H](Cc2c[nH]c3ccccc23)NC(=O)CNC(=O)[C@H](CO)NC(=O)[C@@H](N)Cc2c[nH]c3ccccc23)CSSC[C@@H](C(=O)NCC(=O)O)NC(=O)[C@H](CO)NC1=O has a total clearance of 1420 L/h (patients, plasma; intravenous, 5 mg/kg, thrice weekly, mean).
With CCC[C@H]1CC[C@H](c2ccc(NC(=S)NC[C@@H]3[C@@H](O)[C@@H](O)[C@H]4[C@H](O)CCCN43)cc2)CC1 the BUN was 22.4 ± 4.41 mg/dL (NOD-SCID mouse, serum; ip, 30 mg/kg).
The SUV of O=C(Nc1cnccc1-c1ccc([18F])cc1)c1ccnc(NC(=O)C2CC2)c1 is reported as 0.28 (mice, transgenic, GSK-3β, early-stage, spleen; intravenous, dose not given, 120 min, together with: tariquidar 15 mg/kg i.v. pre-dose).
The tissue uptake of CC(C)C[C@H](NC(=O)[C@@H](CCCCNC(=O)[C@@H](Cc1ccccc1)NC(=O)CCCCCNC(=O)CN1CCN(CC(=O)O)CCN(CC(=O)O)CCN(CC(=O)O)CC1)NC(=O)[C@H](Cc1ccc(O)cc1)NC(=O)[C@H](CO)NC(=O)[C@H](Cc1c[nH]c2ccccc12)NC(=O)[C@H](Cc1c[nH]cn1)NC(=O)[C@@H]1CCC(=O)N1)C(=O)N[C@@H](CCCNC(=N)N)C(=O)N1CCC[C@H]1C(=O)NCC(N)=O [indium-111 labelled] is reported as 1.35 ± 0.37 %ID/g (female athymic nude mice, blood; intravenous, 0.037 MBq, 0.5 h).
For C=CC(=O)Nc1cc(Nc2nccc(-c3cn(C4CC4)c4ccccc34)n2)c(OC)cc1N(C)CCNC, the relative error was -9.6% (bench-top stability; rat plasma; 1 ng/mL, 3 h, room temperature; reference: nominal concentration).
For Cc1nc(N)nc2c1C(=O)N[C@@H](c1ccc(F)cc1-c1cccc(O[11CH3])n1)C2, the SUV was 5.2 ± 1 (ex vivo biodistribution; healthy mice, spleen; 60 min post-injection, baseline, vehicle pre-treatment).
COc1cccc(OC)c1-c1cc(C(=O)NC2(C(=O)O)C3CC4CC(C3)CC2C4)nn1-c1ccc(C(=O)NCCNC(=O)[C@H](CCCCNC(=O)[C@H](CC(C)C)NC(=O)C2OC2C(=O)O)NC(=O)CN2CCN(CC(=O)[O-])CCN(CC(=O)[O-])CCN(CC(=O)[O-])CC2)cc1C(C)C.[177Lu+3] (mixture of isomers) has a tumour-to-heart ratio of 32.4 (mouse, HT-29 xenograft; 72 h post injection, biodistribution; reference: tumour over heart uptake).
The MRT(0-inf) of O=C(c1ccccc1)N1C(c2ccc(OCC3CCN(CCCF)C3)cc2)c2ccc(O)cc2CC12CC2 (stereo not shown) is reported as 4.17 h (C57BL/6J mouse, plasma; oral, 25 mg/kg).

A few entries again:
For O=C(O)CCCOc1ccc([18F])cc1-c1cc(-c2ccccc2C(F)(F)F)n(-c2ccccc2)n1, the absorbed dose was 7.71 µGy/MBq (OLINDA/EXM from mouse data; human adults, testes).
C#CC(C)NC(=O)C(CC(C)(C)F)NC(c1ccc(-c2ccc(S(C)(=O)=O)cc2)cc1)C(F)(F)F (stereo not shown) — result for “cysteine adduct formation”: less than 1% (MES buffer; 100 µM, 23 h, pH 5.5, 37 °C, together with: cysteine 10 mM).
Nc1ncc(-c2cc(-c3cnn(CC(F)(F)F)c3)ncc2F)nc1C(=O)NC1CNCC(F)C1 (stereo not shown) has a remaining binding of 100% (FAK; KINOMEscan competition binding; 1 µM; reference: DMSO control).
